Assay results collected from several papers.
Each line is one published result; not all experiments were run side by side. Several values in a cell are separate wells, animals, samples, runs or records. ± marks the error that the study gave. In brackets after ≈: the same amount, converted by molar mass.

CCOC(=O)C1(Cc2c(F)cccc2F)Oc2cc(F)ccc2N(Cc2c(F)cccc2F)C1=O (centres unmarked) — inhibition (Arabidopsis thaliana; stem length, petri dish germination; Col-0, 1/2 MS medium; 50 µg/mL, 7 days, 22 °C, dark): 42.9%
O=S(=O)(c1ccc(-c2ccc3ncnc(Nc4ccc(OCc5ccc(C(F)(F)F)c(F)c5)c(Cl)c4)c3c2)cc1)N1CCOCC1 — EC50 (Plasmodium falciparum; parasite growth, SYBR Green fluorescence; C235 (TM91C235), drug-resistant): 640 nM
O=C1NC2(CC2)COc2ncc(F)cc2[C@H]2COCCN2c2ccn3ncc1c3n2 — organ-to-brain weight ratio (Sprague-Dawley rat, male, spleen; oral, 2.5 mg/kg/day, 4 weeks dosing, end of recovery): 48.3 ± 4.69%
CC[C@H](C)[C@H](NC(=O)[C@H](CCCCN)NC(=O)[C@H](CCCNC(=N)N)NC(=O)CNC(=O)[C@@H](NC(=O)CN)C(C)C)C(=O)NCC(=O)N[C@@H](Cc1ccccc1)C(=O)N[C@@H](CCCCN)C(=O)N[C@@H](CCCCN)C(=O)N[C@H](C(=O)N[C@@H](CC(C)C)C(=O)N[C@@H](Cc1ccccc1)C(=O)N[C@@H](Cc1ccccc1)C(=O)N[C@@H](Cc1ccccc1)C(=O)N[C@@H](CCCCN)C(=O)N[C@@H](CCCCN)C(=O)NCC(=O)N[C@@H](Cc1ccc(O)cc1)C(=O)N[C@@H](CCC(=O)O)C(=O)N[C@@H](CCCCN)C(=O)N[C@@H](C)C(=O)N[C@@H](CC(N)=O)C(=O)NCC(=O)NCC(=O)N[C@@H](Cc1ccccc1)C(=O)N[C@H](C(=O)N[C@@H](CCCCN)C(=O)N[C@@H](CCCCN)C(=O)N[C@@H](CCCCN)C(=O)NCC(=O)O)C(C)C)C(C)C — MBC (Bacillus subtilis; broth microdilution, agar subculture; ATCC 11774, CaMHB): 64 µM (≈ 222 µg/mL)
CN(C)c1nc(NCc2ccc(F)cc2)c(/N=N/c2ccc(Cl)cc2)c(N(C)C)n1 — mortality (Plutella xylostella; leaf dipping; 200 mg/L, 96 h): 90 ± 5.8%
CC(C)(Cl)CCC[C@@]1(C)Oc2ccccc2[C@H]2O[C@H]3CCN(C(=O)Cn4ccc5ccccc54)C[C@H]3C[C@@H]21 — IC50 (HIV-1 subtype C; viral replication; 96 h): 73100 nM
Fc1cccc(COc2ccc(Nc3ncnc4ccc(-c5ccc(CN6CCOCC6)cc5)cc34)cc2Cl)c1 — EC50 (Plasmodium falciparum; parasite growth, SYBR Green fluorescence; C235 (TM91C235), drug-resistant): 85 nM
COc1ccc(C2=[N+]([O-])c3ccccc3N3CCCN=C23)cc1 — MIC50 (Fusobacterium nucleatum; microbial growth): 0.5 µg/mL (≈ 1.63 µM)
O=CCNCCOn1c(=O)n(OCCNCCO)c(=O)n(OCCNCCOn2c(=O)n(OCCNCCO)c(=O)n(OCCNCCO)c2=O)c1=O — MLC (Bacillus subtilis; broth microdilution): 2 µg/mL (≈ 2.6 µM)
O=S(=O)(c1ccc(-c2ccc3ncnc(Nc4ccc(OCc5ccc(F)cc5)c(Cl)c4)c3c2)cc1)N1CCOCC1 — EC50 (Plasmodium falciparum; parasite growth, SYBR Green fluorescence; W2, drug-resistant): 360 nM
Cc1cc(C(=O)Nc2nc3cccc(C)c3n2[C@H]2CCCCN(C(=O)/C=C/CN(C)C)C2)ccn1 — survival (Trypanosoma brucei brucei; 2T1 CLK1 overexpressing; 5 µM, DMSO pretreated; baseline: maximum): 20.3% and 25.1% and 26.6% and 28.4%
C[C@H](NC(=O)[C@@H](O)c1cc(F)cc(F)c1)C(=O)N[C@@H]1C(=O)N(C)c2ccccc2-c2ccccc21 — inhibition (dengue virus 2; viral infection, luciferase reporter virus; 3 nM, 48 h): 20.2%
CCCN1C(=O)C(CCC)(C(=O)OCC)Oc2cc(F)ccc21 (centres unmarked) — inhibition (Arabidopsis thaliana; root length, petri dish germination; Col-0, 1/2 MS medium; 50 µg/mL, 7 days, 22 °C, dark): 58.5%
CN(C(=O)c1ccn2ncc(-c3ccc(C(N)=O)cc3)c2c1)c1ccc(C#N)cn1 — faecal Nluc luminescence (Cryptosporidium parvum; UGA1 Nluc, IFN-gamma knockout C57BL/6 mice, faeces; oral, 10 mg/kg daily, 264 h post infection, treatment days 11-17; higher means more parasites): 2530 a.u. and 77500 a.u. and 126000 a.u. and 94800 a.u. and 27400 a.u.
[O-][N+]1=C(Cc2ccccc2)C2=NCCCN2c2ccccc21 — MIC50 (Fusobacterium nucleatum; microbial growth): 1 µg/mL (≈ 3.43 µM)
CN1CCN(S(=O)(=O)c2cccc(-c3ccc4ncnc(Nc5ccc(OCc6cccc(F)c6)c(Cl)c5)c4c3)c2)CC1 — EC50 (Plasmodium falciparum; parasite growth, SYBR Green; D6; blood stage): 38 nM
CN(C)S(=O)(=O)c1ccc(S(=O)(=O)N2CCC(n3c(=O)[nH]c4ccccc43)CC2)cc1 — lung bacterial load (Klebsiella pneumoniae; ∆mfd, mouse, intranasal infection, lung; intraperitoneal, 6 mg/kg, 24 h, nanoformulation): 5.73 log10 CFU/g and 5.85 log10 CFU/g and 5.19 log10 CFU/g and 5.38 log10 CFU/g
CCCCCCCC(=O)NCCCC[C@H](NC(=O)CCCCCCC)C(=O)N[C@@H](CCCCNC(=O)CCCCCCC)C(=O)NCC(=O)NCC(=O)NCC(=O)N[C@@H](CS)C(=O)N[C@@H](CCCNC(=N)N)C(=O)N[C@@H](CCCCN)C(=O)N1CCC[C@H]1C(=O)N[C@@H](CS)C(=O)N[C@@H](CCCNC(=N)N)C(=O)N[C@@H](CCCCN)C(=O)N1CCC[C@H]1C(=O)N[C@@H](CS)C(=O)N[C@@H](CCCNC(=N)N)C(=O)N[C@@H](CCCCN)C(=O)N1CCC[C@H]1C(N)=O — MIC (Candida albicans; broth microdilution; SP 3876, RPMI-1640; 48 h, 30 °C): 16 µM (≈ 36.4 µg/mL)
O=S(=O)(c1ccc(-c2ccc3ncnc(Nc4ccc(OCc5cccc(Br)c5)c(Cl)c4)c3c2)cc1)N1CCOCC1 — EC50 (Plasmodium falciparum; parasite growth, SYBR Green fluorescence; W2, drug-resistant): 440 nM
CC(C)C[C@H](NC(=O)[C@H](CC(C)C)NC(=O)[C@H](CCCCN)NC(=O)[C@H](Cc1ccccc1)NC(=O)[C@@H](NC(=O)[C@H](CCCNC(=N)N)NC(=O)[C@@H](N)CCCCN)C(C)C)C(=O)N[C@@H](CCCCN)C(=O)N[C@@H](CCCNC(=N)N)C(=O)N[C@@H](Cc1ccc(O)cc1)C(=O)N[C@@H](Cc1c[nH]c2ccccc12)C(=O)N[C@@H](CCCNC(=N)N)C(=O)N[C@@H](CCC(N)=O)C(=O)N[C@@H](CC(C)C)C(=O)N[C@@H](CCCCN)C(=O)N[C@@H](CCCCN)C(=O)N1CCC[C@H]1C(=O)N[C@H](C(=O)N[C@@H](CCCNC(=N)N)C(=O)NCCOCCOCC(=O)O)C(C)C — exopolysaccharide reduction (Pseudomonas aeruginosa and Staphylococcus aureus; confocal microscopy; mixed biofilm; 10 µM, 6 h, biofilm, pre-formed, 24 h): 65.2%
CCN(CC)CCO.O=C(O)C(Cl)Cl — herbicidal inhibition (Xanthium sibiricum; 15 mg/mL, 21 days, post-emergence, greenhouse): 62%
CCOC(=O)C1(Cc2ccc(C#N)cc2F)Oc2cc(F)ccc2N(Cc2ccc(C#N)cc2F)C1=O (centres unmarked) — inhibition (Arabidopsis thaliana; root length, petri dish germination; Col-0, 1/2 MS medium; 200 µg/mL, 7 days, 22 °C, dark): 51.2%
FC(F)(F)c1cccc(CNc2nc(NC3CCN(Cc4ccccc4)CC3)c3nc[nH]c3n2)c1 — fold change (Cryptococcus neoformans; mRNA level, RNA-seq, measured: CNAG_00388; 48 µg/mL, 3 h; baseline: untreated): 1.26
CCc1nn(C)c2nc(-c3ccc(C(=O)O)cc3)nc(NCc3ccccc3)c12 — parasite number (Cryptosporidium parvum; HCT-8; 12 x EC90, 6 h; baseline: DMSO control): 85.4% and 72.9% and 134% and 81%
CCCCCCCC(=O)NCCCC[C@H](NC(=O)CCCCCCC)C(=O)N[C@@H](CCCCNC(=O)CCCCCCC)C(=O)NCC(=O)NCC(=O)NCC(=O)N[C@@H](CS)C(=O)N[C@@H](CCCNC(=N)N)C(=O)N[C@@H](CCCCN)C(=O)N1CCC[C@H]1C(=O)N[C@@H](CS)C(=O)N[C@@H](CCCNC(=N)N)C(=O)N[C@@H](CCCCN)C(=O)N1CCC[C@H]1C(=O)N[C@@H](CS)C(=O)N[C@@H](CCCNC(=N)N)C(=O)N[C@@H](CCCCN)C(=O)N1CCC[C@H]1C(=O)N[C@@H](CS)C(=O)N[C@@H](CCCNC(=N)N)C(=O)N[C@@H](CCCCN)C(=O)N1CCC[C@H]1C(N)=O — MIC (Candida albicans; broth microdilution; fluconazole-resistant 56214, RPMI-1640; 48 h, 30 °C): 16 µM (≈ 44.2 µg/mL)
Cc1ccc(N2CC3CC(C2)N3C)cc1C(=O)NC1(c2ccc3c4c(cccc24)C(=O)N3C)CC1 — inhibition (Betacoronavirus 1; viral replication; Huh-7, OC43; 0.75 µM): 0%
CCOC(=O)C1(Cc2ccccc2F)Oc2cc(F)ccc2N(Cc2ccccc2F)C1=O (centres unmarked) — inhibition (Arabidopsis thaliana; stem length, petri dish germination; Col-0, 1/2 MS medium; 50 µg/mL, 7 days, 22 °C, dark): 37.7%
CC[C@H](C)CCCCC(=O)N[C@@H](CCN)C(=O)N[C@H](C(=O)N[C@@H](CCN)C(=O)N[C@H]1CCNC(=O)[C@H]([C@@H](C)O)NC(=O)[C@H](CCN)NC(=O)[C@H](CCN)NC(=O)[C@H](CC(C)C)NC(=O)[C@@H](CC(C)C)NC(=O)[C@H](CCN)NC1=O)[C@@H](C)O — MIC fold change (Escherichia coli; daily serial passaging; ATCC 8739; highest sub-MIC, 29 days; baseline: initial MIC): 1.63
CCOC(=O)C1(C)Oc2cc(F)ccc2N(C)C1=O (centres unmarked) — inhibition (Arabidopsis thaliana; root length, petri dish germination; Col-0, 1/2 MS medium; 50 µg/mL, 7 days, 22 °C, dark): 72.4%
COc1ccc2nc3cc(Cl)ccc3c(NCCNC(C)=C3C(=O)C=C4Oc5c(C(C)=O)c(O)c(C)c(O)c5C4(C)C3=O)c2c1 (centres unmarked) — inhibition (Plasmodium berghei; parasitaemia; ANKA GFP, mouse NMRI; intraperitoneal, 4 × 50 mg/kg, day 4 post infection): 0%
CCOC(=O)C1(CC#N)Oc2cc(F)ccc2N(CC#N)C1=O (centres unmarked) — inhibition (Arabidopsis thaliana; stem length, petri dish germination; Col-0, 1/2 MS medium; 200 µg/mL, 7 days, 22 °C, dark): 91.8%
Fc1cccc(COc2ccc(Nc3ncnc4ccc(-c5cccc(N6CCCCC6)c5)cc34)cc2Cl)c1 — EC50 (Plasmodium falciparum; parasite growth, SYBR Green fluorescence; W2, drug-resistant): 1800 nM

Some of these lines once more:
CC[C@H](C)[C@H](NC(=O)[C@H](CCCCN)NC(=O)[C@H](CCCNC(=N)N)NC(=O)CNC(=O)[C@@H](NC(=O)CN)C(C)C)C(=O)NCC(=O)N[C@@H](Cc1ccccc1)C(=O)N[C@@H](CCCCN)C(=O)N[C@@H](CCCCN)C(=O)N[C@H](C(=O)N[C@@H](CC(C)C)C(=O)N[C@@H](Cc1ccccc1)C(=O)N[C@@H](Cc1ccccc1)C(=O)N[C@@H](Cc1ccccc1)C(=O)N[C@@H](CCCCN)C(=O)N[C@@H](CCCCN)C(=O)NCC(=O)N[C@@H](Cc1ccc(O)cc1)C(=O)N[C@@H](CCC(=O)O)C(=O)N[C@@H](CCCCN)C(=O)N[C@@H](C)C(=O)N[C@@H](CC(N)=O)C(=O)NCC(=O)NCC(=O)N[C@@H](Cc1ccccc1)C(=O)N[C@H](C(=O)N[C@@H](CCCCN)C(=O)N[C@@H](CCCCN)C(=O)N[C@@H](CCCCN)C(=O)NCC(=O)O)C(C)C)C(C)C — MBC (Bacillus subtilis; broth microdilution, agar subculture; ATCC 11774, CaMHB): 64 µM (≈ 222 µg/mL)
CN(C)c1nc(NCc2ccc(F)cc2)c(/N=N/c2ccc(Cl)cc2)c(N(C)C)n1 — mortality (Plutella xylostella; leaf dipping; 200 mg/L, 96 h): 90 ± 5.8%
CC(C)(Cl)CCC[C@@]1(C)Oc2ccccc2[C@H]2O[C@H]3CCN(C(=O)Cn4ccc5ccccc54)C[C@H]3C[C@@H]21 — IC50 (HIV-1 subtype C; viral replication; 96 h): 73100 nM
Fc1cccc(COc2ccc(Nc3ncnc4ccc(-c5ccc(CN6CCOCC6)cc5)cc34)cc2Cl)c1 — EC50 (Plasmodium falciparum; parasite growth, SYBR Green fluorescence; C235 (TM91C235), drug-resistant): 85 nM
COc1ccc(C2=[N+]([O-])c3ccccc3N3CCCN=C23)cc1 — MIC50 (Fusobacterium nucleatum; microbial growth): 0.5 µg/mL (≈ 1.63 µM)
